Measured values pooled from the literature.
Every numbered part comes from another study and shows a few of its results, in no order. Positions count from the first letter of the parent shown.

Sample 1 — target: CCND2, cyclin fold, Cln2 fusion (human); method: yeast growth competition, sequencing; matrix: yeast; setting: weak parent motif; reference: not given; reading: higher = stronger binding
Parent: E2F1 docking peptide (human); PPVKRRLDLETDH
For `R6P`, “normalised enrichment score” read -0.135.
Under “normalised enrichment score”, `V3E` is recorded as 0.192.
`L7A`: “normalised enrichment score” 0.113.
`P1H`: “normalised enrichment score” 0.466.
Under “normalised enrichment score”, `R6E` is recorded as 0.568.

Sample 2 — method: RNA Bind-n-Seq; form: RNA; matrix: in vitro; concentration: 365 nM; reference: no-protein control; reading: higher = stronger binding
Target: RNA binding protein fox-1 homolog 2, RRM domain, GST-SBP tag (RBFOX2, Homo sapiens, UniProt O43251-10, residues 100-194)
Setting: natural RNA segment, single round, ends assumed
Target sequence (chain): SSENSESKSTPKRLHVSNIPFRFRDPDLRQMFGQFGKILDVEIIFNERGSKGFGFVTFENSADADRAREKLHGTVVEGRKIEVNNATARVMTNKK
`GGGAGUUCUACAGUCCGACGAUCAUGUUGGGUCAAGGUUCUAGGAGCAGGACAGAGUGUUCCUGUCAUAGUACACACUAAGUUUCCCACUAGCAGAGUCCUCGCCAUGUCAUUUCUACCUCCAAAGUCAUCAGUGGAAUUCUCGGGUGCCAA` — result for “RBNS enrichment (R)”: 0.347.
Under “RBNS enrichment (R)”, `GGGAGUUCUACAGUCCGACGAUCAGCACCUGCCUUUCCCUCCUGGGUCUCCUUGCCGCGUGCUGAGCCGAGGCAGGCCUGCAGGGCCUGGGCUACACCAUCCUGCCAGUGUCUCCCUCUCAGUGUCUCCCUCUUGGAAUUCUCGGGUGCCAA` is recorded as 0.345.
`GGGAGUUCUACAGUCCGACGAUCCCUGCAGCCCUUCUGCGCCCUGAGGGCUCUGCCAUCACCCACAGACCAGGCAAUCCUGGCCUGGUACCUGCGCCCAGCACCAACAGAUGGGCAGAAUGGACGGGGUGGGCUGGAAUUCUCGGGUGCCAA`: “RBNS enrichment (R)” 0.453.
Under “RBNS enrichment (R)”, `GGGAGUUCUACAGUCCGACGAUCUGGUCUUGAACUCCUGACCGCAGGUAAUCCACCUGCUUCGGCCUCCCAAAGUGCUGGGAUUACAGGCGCAAGCCACCCAGCCCAGCUUCUUUCCAUUCCUUGAUAGGCGAUGGAAUUCUCGGGUGCCAA` is recorded as 0.186.
For `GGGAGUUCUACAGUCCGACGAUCAGGCUCGAUUCUGCCCUCUCUUUUUAACCAUCUCCCUUGUAGAUGAUCCGGGCCACUAGAGAUUAGCUUCCAUUGCCUGAGGCAGAGGGAGGACACAGGUCUUCCUGGAGUGGAAUUCUCGGGUGCCAA`, “RBNS enrichment (R)” read 0.246.
For `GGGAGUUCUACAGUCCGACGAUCUGCACUCUAAAGGGGAACAUUUUAAGGAAGUACUAGCAGCUUUGACUCUUCUAUGCUCCUGUUGGUUUACAAGCCACCAAGAAUGUCAGUGUUGAGAAUACGGCCUGGUAUGGAAUUCUCGGGUGCCAA`, “RBNS enrichment (R)” read 0.361.
`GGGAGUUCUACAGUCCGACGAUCGGCACAUAUUGAGGCGAUCAUAAGUCUUAACUUUUCAAAAUUUUAAAUAAAAGACUUUGCACAUUGACCCCUUUCCCUGAAUUCUGUUUGUUGGGAAAGCUCCUGAAAUGUGGAAUUCUCGGGUGCCAA` — result for “RBNS enrichment (R)”: 0.417.
For `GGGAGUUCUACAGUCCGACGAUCUCAGCACAAGCUAGGGGAGAUCCUACCAACACUGAUAGGUCAGUCAUUGAUGGCAAUUUGAAUGUGGGUAUUACUCUGUGAGCCACCCUGCUUCGCUUGUUUGUAAGGAGUGGAAUUCUCGGGUGCCAA`, “RBNS enrichment (R)” read 1.16.

Sample 3 — method: protein-binding microarray; form: double-stranded DNA, one strand shown; matrix: in vitro; concentration: 250 nM; setting: 60-bp whole probe; with: salmon DNA 0.4 mg/ml; reference: random background probes; reading: higher = stronger binding; all sequences stand within: GCCTAGCAC … GTCTTGATTCGCTTGACGCTGCTG
Target: Interferon regulatory factor 5, full length, phosphomimetic (IRF5, Homo sapiens, UniProt Q13568-2, residues 1-514, K96S/S451D/S453D/S456D/S462D)
For `GACGGAATCCTTATCCTGACGTGCTAG`, the log fluorescence was -0.247 z-score.
`GATGGTCTCGGTCTCGGGACGTGCTAG` gave a log fluorescence of 0.523 z-score.
`TTAGGTCTGCTACTGCTTTAGTGCTAG` gave a log fluorescence of -0.388 z-score.
`TCAACTTTCTCTGCTCTTTTCGTGCTA` has a log fluorescence of 2.62 z-score.
With `GATTTTTTTCATATATATATGTGCTAG` the log fluorescence was 2.29 z-score.
With `TTAGGTACCGGTATCGGTTAGTGCTAG` the log fluorescence was 4.68 z-score.
The log fluorescence of `GATGGTATCCTTATCCTGACGTGCTAG` is reported as 0.172 z-score.
`AACGGTTTCCTTATCCTGACGTGCTAG` gave a log fluorescence of 0.991 z-score.
`TTAGGACTGGACATTGGGTTAGTGCTA` gave a log fluorescence of -0.504 z-score.
For `CTCACTCTGTCCCTCTGTGAGTGCTAG`, the log fluorescence was -0.028 z-score.

Single results of other studies
`HNRNPA1 (Homo sapiens, UniProt P09651)` — result for interaction screen: “cross-linked” (NONO (Homo sapiens, UniProt Q15233); cross-linking MS; hits only).
`PhoQ, residues 284 288 289 292 302 303 TLSLKA` gave a fold induction of 3.97 (PhoP, residues 12 14 15 18 19 LHTVL (Escherichia coli, UniProt P23836); Sort-seq, refers to: YFP reporter; E. coli; PhoQ-PhoP variant library, with: 10 µM Mg2+; reference: high Mg2+ state, higher = stronger signaling).
